Experimental data gathered from unrelated publications.
Every numbered part comes from another study and shows a few of its results, in no order.

Study 1
Target: Histone acetyltransferase KAT6A, both winged helices, GST fusion (KAT6A, Homo sapiens, UniProt Q92794, residues 1-181)
Method: protein binding microarray
Form: double-stranded DNA, one strand shown
Medium: in vitro
Concentration: not given
Notes: 8-mer, flanks averaged, mean of 2 arrays, mostly near background
Baseline: not given
Direction: higher = stronger binding
Measurement: E-score
Residues (chain): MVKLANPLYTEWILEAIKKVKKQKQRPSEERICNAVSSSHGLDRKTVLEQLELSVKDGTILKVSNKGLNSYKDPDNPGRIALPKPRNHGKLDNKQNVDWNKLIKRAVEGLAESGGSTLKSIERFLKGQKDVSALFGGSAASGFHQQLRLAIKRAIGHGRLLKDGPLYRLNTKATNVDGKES
CTAATGGC: -0.0719
GTTGAAGA: -0.0469
TGCATTAA: 0.00336
GAAAGAAA: -0.0812
GTCAAGAA: -0.147
CAAAAGGG: -0.106

Study 2
Target: Prothrombin, mature alpha-thrombin (F2, Homo sapiens, UniProt P00734)
Method: aptamer microarray, sandwich
Form: DNA with 2'F-ANA
Medium: in vitro
Concentration: 200 nM
Notes: whole 15-mer aptamer, many near background
Together with: Cy3 exosite-II aptamer, 400 nM
Direction: higher = stronger binding
Measurement: mean fluorescence intensity
GGTTGGTGTGGTTGG (2'F-ANA at 3 4 8 9 11 14 15): 260 a.u.
GGTTGGTGTGGTTGG (2'F-ANA at 2 3 4 9 12 14): 335 a.u.
GGTTGGTGTGGTTGG (2'F-ANA at 4 6 7 8 10 11 12 13): 88.5 a.u.
GGTTGGTGTGGTTGG (2'F-ANA at 3 5 6 7 8 13): 105 a.u.

Study 3
Target: Sal-like protein 4, full length isoform A (SALL4, Homo sapiens, UniProt Q9UJQ4, residues 1-1053)
Sequence of UniProt Q9UJQ4 (whole entry, looked up): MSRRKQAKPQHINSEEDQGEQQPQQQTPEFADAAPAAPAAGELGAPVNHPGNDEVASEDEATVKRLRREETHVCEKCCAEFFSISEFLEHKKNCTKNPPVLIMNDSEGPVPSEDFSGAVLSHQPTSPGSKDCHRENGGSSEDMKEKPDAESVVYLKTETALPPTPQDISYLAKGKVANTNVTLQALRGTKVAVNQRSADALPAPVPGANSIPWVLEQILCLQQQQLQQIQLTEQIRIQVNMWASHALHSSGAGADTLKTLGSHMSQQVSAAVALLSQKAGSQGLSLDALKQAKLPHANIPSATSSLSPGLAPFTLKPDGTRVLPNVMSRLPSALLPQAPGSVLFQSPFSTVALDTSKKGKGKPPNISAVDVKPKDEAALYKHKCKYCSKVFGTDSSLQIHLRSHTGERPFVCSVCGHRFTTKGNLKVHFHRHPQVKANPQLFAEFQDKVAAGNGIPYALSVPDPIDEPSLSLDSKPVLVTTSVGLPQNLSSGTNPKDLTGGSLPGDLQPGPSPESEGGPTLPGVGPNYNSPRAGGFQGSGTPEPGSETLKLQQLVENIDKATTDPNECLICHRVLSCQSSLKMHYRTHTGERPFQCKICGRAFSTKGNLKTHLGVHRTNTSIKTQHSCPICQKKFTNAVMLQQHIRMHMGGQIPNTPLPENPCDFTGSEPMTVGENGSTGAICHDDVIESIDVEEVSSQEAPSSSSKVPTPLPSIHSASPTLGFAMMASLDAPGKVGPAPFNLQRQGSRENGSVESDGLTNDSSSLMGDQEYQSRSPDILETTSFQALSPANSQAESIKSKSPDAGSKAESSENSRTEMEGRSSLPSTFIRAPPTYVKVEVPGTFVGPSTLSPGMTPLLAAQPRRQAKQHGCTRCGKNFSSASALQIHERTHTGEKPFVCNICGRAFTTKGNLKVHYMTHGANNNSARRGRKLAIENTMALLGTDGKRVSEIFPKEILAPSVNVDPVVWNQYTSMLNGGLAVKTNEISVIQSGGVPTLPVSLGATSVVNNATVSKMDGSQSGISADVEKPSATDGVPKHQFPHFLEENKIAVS
Method: universal PBM
Form: double-stranded DNA, one strand shown
Medium: in vitro
Concentration: 600 nM
Notes: 8-mer, flanks averaged, mean of replicates
Direction: higher = stronger binding
Measurement: E-score
CTCACGCC: -0.327
TCGCCCCA: -0.251
CGGGTAAG: -0.251
ACTAAACT: 0.132
ACCGTAGT: -0.213
CGCCTCAG: -0.189

Further values, each from its own experiment
PhoQ, residues 284 288 289 292 302 303 TGYLSA  fold induction (PhoP, residues 12 14 15 18 19 DLLYY (Escherichia coli, UniProt P23836); Sort-seq, measured: YFP reporter; E. coli; PhoQ-PhoP variant library, together with: 10 µM Mg2+; baseline: high Mg2+ state, higher = stronger signaling): 2.15
